Measured values gathered from unrelated publications.
Every numbered part comes from another study and shows a few of its results, in no order.

Series 1 — method: protein-binding microarray; form: double-stranded DNA, one strand shown; matrix: in vitro; tested at: 0.8 µM; setting: whole 60-bp probe, no competitor; direction: higher = stronger binding
Target: Centromere-binding protein 1, full length, N-terminal tag (CBF1, Saccharomyces cerevisiae, UniProt P17106, residues 1-351)
Chain of UniProt P17106 (whole entry, looked up): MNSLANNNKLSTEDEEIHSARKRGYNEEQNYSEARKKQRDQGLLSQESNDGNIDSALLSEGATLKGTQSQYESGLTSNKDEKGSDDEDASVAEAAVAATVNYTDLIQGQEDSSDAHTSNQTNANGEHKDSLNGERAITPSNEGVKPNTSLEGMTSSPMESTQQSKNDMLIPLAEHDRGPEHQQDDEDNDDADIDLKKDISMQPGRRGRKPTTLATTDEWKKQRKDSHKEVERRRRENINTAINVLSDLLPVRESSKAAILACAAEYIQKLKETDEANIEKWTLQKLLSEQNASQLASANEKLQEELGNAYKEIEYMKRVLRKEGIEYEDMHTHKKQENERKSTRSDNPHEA
With `GAATGTAAAAGAGAGCACGTCTGTAGTTTCAAATAGGTCTTGATTCGCTTGACGCTGCTG` the fluorescence intensity was 562 a.u.
With `CTAATAAACAGAGCAAATATCACGTGCACAAAGTTCGTCTTGATTCGCTTGACGCTGCTG` the fluorescence intensity was 14600 a.u.
`CTAACGTCAAGATTCTCCGTGACTATGGCTCTTTTCGTCTTGATTCGCTTGACGCTGCTG` has a fluorescence intensity of 544 a.u.
The fluorescence intensity of `GAACGGAAAAAAAAGCACGTCACGAAAATAAAATAGGTCTTGATTCGCTTGACGCTGCTG` is reported as 727 a.u.

Series 2 — method: protein binding microarray; form: double-stranded DNA, one strand shown; matrix: in vitro; tested at: not given; baseline: not given; direction: higher = stronger binding
Target: Histone acetyltransferase KAT6A, winged helix 1, GST fusion (KAT6A, Homo sapiens, UniProt Q92794, residues 1-85)
Setting: 8-mer, flanks averaged, mean of 2 arrays, mostly near background
Target sequence (chain): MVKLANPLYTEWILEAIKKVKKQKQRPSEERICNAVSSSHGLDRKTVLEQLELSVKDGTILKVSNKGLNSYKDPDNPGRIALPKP
`AGTCCACA` has an E-score of -0.151.
The E-score of `ACTTGTGA` is reported as -0.223.
For `ACTTCCCA`, the E-score was -0.201.

Series 3 — method: universal PBM; form: double-stranded DNA, one strand shown; matrix: in vitro; tested at: not given; direction: higher = stronger binding
Target: Sal-like protein 4, full length isoform B (SALL4, Homo sapiens, UniProt Q9UJQ4-2, residues 1-616)
Setting: 8-mer, flanks averaged, mean of replicates
With `CATCAAAG` the E-score was -0.0572.
For `ATGTGCGC`, the E-score was -0.0452.
With `CCTCGACA` the E-score was -0.0276.
`AAACGGAC` gave an E-score of -0.0739.

Single results of other studies
For `PhoQ, residues 284 288 289 292 302 303 SIHLQL`, the fold induction was 10.3 (PhoP, residues 12 14 15 18 19 AQALL (Escherichia coli, UniProt P23836); Sort-seq, item: YFP reporter; E. coli; PhoQ-PhoP variant library, together with: 10 µM Mg2+; baseline: high Mg2+ state, higher = stronger signaling).

Repeated from above (series 2):
`AGTCCACA` has an E-score of -0.151.
For `ACTTCCCA`, the E-score was -0.201.
